Experimental data gathered from unrelated publications.
Compare with care: the assays were run in different laboratories. ± marks the error that the study gave.

| Structure (SMILES) | cell line | test | test system | conditions | how to read | measurement | result |
| --- | --- | --- | --- | --- | --- | --- | --- |
| N#Cc1cnc2cc(OCC3CCNCC3)c(F)cc2c1Nc1cc(F)c(OCc2cccc(Cl)n2)cc1Cl | INS-1E | western blot |  | concentration not given, pretreatment, together with: thapsigargin |  | MST1 and caspase activation | decreased |
| COc1ccc(OC)c(Nc2nc(NCCCO)c3ccccc3n2)c1 | BCR-ABL1+ BRCA1-deficient 32Dcl3 | item: GFP-RAD52 foci |  | 2.5 µM, together with: cisplatin |  | foci-positive cells | 19 ± 0.4% |
| CC/C=C\C/C=C\C/C=C\C/C=C\C/C=C\C/C=C\CCC(=O)Nc1ccn(C2OC(CO)C(O)C2(F)F)c(=O)n1 (stereo not shown) | SF-539 | cell growth or viability, SRB |  |  |  | GI50 | 28.7 nM |
| COc1cc(C(=O)c2[nH]c(N)nc2-c2cccs2)cc(OC)c1OC | HeLa cells | propidium iodide staining |  | 200 nM, 24 h |  | dead cells | 74% |
| CC(=O)OC[C@H]1O[C@@H](Sc2sc(C(=O)c3ccc(Br)cc3)c(N)c2-c2nc3ccccc3s2)[C@H](OC(C)=O)[C@@H](OC(C)=O)[C@@H]1OC(C)=O | SK-MEL-2 | SRB |  | 10 µM, 48 h | relative to: untreated | growth | 106% |
| COc1ccc2c(c1)/C(=N\Nc1nnc3n1N=C(c1ccccc1)CS3)C(=O)N2 | IGROV-1 | cell growth or viability, SRB |  | 10 µM |  | inhibition | 17% |
| COc1ccc([C@@H]2CC(=O)c3c(O)cc(O[C@@H]4O[C@H](CO[C@@H]5O[C@@H](C)[C@H](O)[C@@H](O)[C@H]5O)[C@@H](O)[C@H](O)[C@H]4O)cc3O2)cc1O | MRC5 | trypan blue exclusion |  | 100 µg/mL, 24 h |  | cell count | 10800 ± 473 |
| COc1cc(C2Oc3ccc(C=C4Oc5cc(O)ccc5C4=O)cc3OC2CO)cc(OC)c1O (stereo not shown) | MRC5 over HeLa | cytotoxicity, MTT |  | 72 h | relative to: IC50 MRC5 over IC50 HeLa | selectivity ratio | 1.15 |
| COc1cc(CNC(=O)C[C@H](C)CCC=C(C)C)ccc1OCc1cn(-c2cccc(C(F)(F)F)c2)nn1 | CCRF-CEM | SRB |  | 10 µM, 48 h |  | growth | 97.1% |
| O=C1NCC(Cc2ccccc2)N(CC2CCCN2CC(CC2CCCCC2)N2CC(Cc3ccc(O)cc3)N(CCc3ccccc3)C(=O)C2=O)C1=O (stereo not shown) | WM 266-4 | annexin V flow cytometry |  | 100 µM, 48 h, together with: Z-VAD-FMK 10 µM |  | late apoptotic cells | 27% |
| CC1(C)C(=O)N=C2C1=C(O)C(=O)c1ccccc12 | HEK-293T | H4K20me1 depletion, inhibitor, western blot |  | sustained 3 days |  | effective single dose | 5 µM |
| COc1cc(CNC(=O)C[C@H](C)CCC=C(C)C)ccc1OCc1cn(-c2cccc(Cl)c2)nn1 | U-251 CNS cancer cells | SRB |  | 10 µM, 48 h |  | growth percent | 103% |
| COc1cc2c(C=C3C(=O)Nc4ccccc43)c[nH]c2cc1C | melanoma subpanel of NCI-60 |  |  | 48 h |  | TGI | 7.41 µM |
| N#Cc1cccc(-c2ccc(=O)n(Cc3cccc(-c4ncc(OCC5CCN(CC(=O)NCCOCCNc6ccc7c(c6)C(=O)N(C6CCC(=O)NC6=O)C7=O)CC5)cn4)c3)n2)c1 (stereo not shown) | EBC-1 | annexin V flow cytometry |  | 100 nM, 48 h |  | apoptotic cells | 62.5% |
| CC(=O)Oc1ccccc1C(=O)[O][Pt]([NH2])([NH2])([Cl])([Cl])[O]C(=O)C(Cl)Cl | C13 and 2008 | cytotoxicity, MTT |  |  | relative to: IC50 C13 over IC50 2008 | resistance factor | 2.7 |
| CC(=C(c1ccc(O)cc1)c1ccc(Cl)cc1)c1ccc(Cl)cc1 | Hs-578T | cell growth or viability, SRB |  |  |  | GI50 | 600 nM |
| Cc1cc(N)c2ccccc2[n+]1CCCCCCCCCCCCCC[n+]1c(C)cc(N)c2ccccc21 | NB12 neuroblastoma tumour-initiating cells | trypan blue exclusion |  | concentration not given |  | time to majority cell death | 72 h |
| O=Cc1c(O)ccc2ccccc12 | HUVEC | RNA sequencing, item: MCM4 |  | 75 µM, 24 h | relative to: DMSO | log2 fold change | -3.45 |
| CCNC(=S)N/N=C(\C)c1ccccn1 | Vero | cell growth or viability, SRB |  | 100 µg/mL, 48 h |  | inhibition | 63.6% |
| C[N+]1(CC(=O)OC2CCCCCCCCCCC2)CCCCC1 | LNCaP expressing AR-V7 | cell viability, CellTiter Blue |  | 96 h |  | ED90 | 15.7 µM |

| Structure (SMILES) | cell line | test | test system | conditions | how to read | measurement | result |
| --- | --- | --- | --- | --- | --- | --- | --- |
| COc1cc(CNC(=O)C[C@H](C)CCC=C(C)C)ccc1OCc1cn(-c2ccc(C#N)cc2)nn1 | U-251 CNS cancer cells | SRB |  | 10 µM, 48 h |  | growth percent | 83.9% |
| O=C1OCC2=C1C(c1cccc(Br)c1)C1=C(N2)C(=O)c2ccccc2C1=O (stereo not shown) | SK-LU-1 cells | annexin V/PI |  | 0.16 µM, 24 h |  | total apoptotic cells | 11.9% |
| C[n+]1cc(NC(=O)c2ccc3ccc4ccc(C(=O)Nc5cc6ccccc6[n+](C)c5)nc4c3n2)cc2ccccc21 | MRC5 | cell growth or viability, ATP luminescence |  | 96 h |  | GI50 | 34800 nM |
| Cc1ccc2c(n1)c1nc(C)ccc1c1nc3cc4ccccc4cc3nc21.[Ru+2].c1ccc(-c2cccc(-c3ccccn3)n2)nc1.c1ccncc1 | M2 murine macrophages |  |  |  | relative to: dark EC50 over light EC50 | phototherapeutic index | > 45 |
| CCCCCCCCN(CCC(=O)Nc1ccccc1)C(=O)c1ccccn1 | HGPS fibroblasts |  |  | 2 µM, 10 days |  | phospho-Akt level | increased |
| CC(=O)Oc1ccccc1C(=O)[O][Pt]([NH2])([NH2])([Cl])([Cl])[O]C(=O)CCCc1ccccc1 | C13 and 2008 | cytotoxicity, MTT |  |  | relative to: IC50 C13 over IC50 2008 | resistance factor | 1.5 |
| COc1cc(CNC(=O)C[C@H](C)CCC=C(C)C)ccc1OCc1cn(-c2ccccc2F)nn1 | SK-MEL-2 melanoma cells | SRB |  | 10 µM, 48 h |  | growth percent | 78.5% |
| COC(=O)c1ccccc1-c1c2ccc(=O)cc-2oc2cc(OCCCCC[P+](c3ccc(C)cc3)(c3ccc(C)cc3)c3ccc(C)cc3)ccc12 | HeLa cells | confocal microscopy | mitochondria | 100 nM | relative to: MitoTracker Deep Red | fluorescence ratio | 0.361 ± 0.058 |
| COc1cc(CNC(=O)C[C@H](C)CCC=C(C)C)ccc1OCc1cn(-c2ccccc2Cl)nn1 | RPMI-8226 leukaemia cells | SRB |  | 10 µM, 48 h |  | growth percent | 47.6% |
| CN1CCCNC(=O)c2cccc(c2)C(=O)NCCCN(C)CCCNc2cccc3c2C(=O)c2cccc(c2C3=O)NCCC1 | SAS | RNA-Seq |  | 5 µM, 6 h |  | downregulated Wnt/β-catenin pathway genes | 9 genes |
| COc1cc(CNC(=O)C[C@H](C)CCC=C(C)C)ccc1OCc1cn(-c2ccc(Br)cc2)nn1 | RPMI-8226 leukaemia cells | SRB |  | 10 µM, 48 h |  | growth percent | 69.3% |
| CC(=O)N[C@H](C(=O)N[C@H](C(=O)N[C@@H](CCCNC(=N)N)C(=O)N1Cc2ccccc2C[C@H]1C(=O)N[C@@H](Cc1ccccc1)C(N)=O)C1CCCCC1)C(C)C | MBP-specific BC-3 T cells | Bio-Plex multiplex, item: IL-2 |  | 200 µg/mL, 24 h, together with: MBP87-99 antigen |  | cytokine level | < 2.7 pg/mL |
| CC(C)CC(CC(C)C)NC(=O)[C@H](Cc1c[nH]cn1)NC(=O)CNC(=O)[C@@H](NC(=O)[C@H](C)NC(=O)[C@H](Cc1c[nH]c2ccccc12)NC(=O)[C@H](CCC(N)=O)NC(=O)[C@@H](Cc1ccccc1)NC(=O)COCC(=O)Nc1ccc(CNC(=O)CN2CCN(CC(=O)O)CCN(CC(=O)O)CCN(CC(=O)O)CC2)cc1)C(C)C [lutetium-177 labelled] | PC-3, DMSO vehicle pretreated | SRB assay after 6 days |  | 50 MBq, 1 h, 37 °C | relative to: medium-treated | cell density | 98.9 ± 9.01% |
| CCN(CC)CC(=O)Nc1cccc(-n2cc(-c3ccc4ccc(-c5cn(-c6cccc(NC(=O)CN(CC)CC)c6)nn5)cc4c3)nn2)c1 | RCC4 | luciferase reporter |  | 5 x IC50, normoxia |  | HRE reporter activity decrease | 59% |
| O=C(CCCCC1SCC2NC(=O)NC21)NCCCCC(CN1CCCC1CN1C(=O)C(=O)NCC1Cc1ccccc1)N1CC(Cc2ccc(O)cc2)N(CCc2ccccc2)C(=O)C1=O (stereo not shown) | WM 266-4 | western blot, item: cleaved lamin A/C |  | 100 µM, 24 h |  | lamin A/C cleavage | no effect |
| CCc1cccc(CC)c1NC(=O)c1nn(C)c2c1CCc1cnc(Nc3ccc(N4CCN(C)CC4)cc3OC)nc1-2 | HeLa I598F | cell proliferation |  |  | relative to: HeLa I598F over parental HeLa | IC50 ratio | 2.6 |
| C(=C/c1ccccc1)/c1ccccc1 | CCRF-CEM | cell proliferation, CellTiter-Glo |  | 24 h | relative to: vehicle | lowest effective concentration | 10 µM |
| COc1cc(CNC(=O)C[C@H](C)CCC=C(C)C)ccc1OCc1cn(-c2cccc([N+](=O)[O-])c2)nn1 | U-251 CNS cancer cells | SRB |  | 10 µM, 48 h |  | growth percent | 40.1% |
| CO[C@H]1N(OC)c2ccccc2[C@@]12CN=C(Nc1cc(C(F)(F)F)cc(C(F)(F)F)c1)S2 (relative stereo) | HCT-116 | PI flow cytometry |  | 40 µM, 48 h |  | sub-G1 phase cells | 48.9 ± 7.21% |
| COc1ccc(NC(=O)CCc2nc3cc(Cl)ccc3[nH]c2=O)cc1 | MCF7 | annexin V-FITC |  | concentration not given |  | necrotic cells | 12.7% |

Some of these lines once more:
| Structure (SMILES) | cell line | test | test system | conditions | how to read | measurement | result |
| --- | --- | --- | --- | --- | --- | --- | --- |
| CN1CCCNC(=O)c2cccc(c2)C(=O)NCCCN(C)CCCNc2cccc3c2C(=O)c2cccc(c2C3=O)NCCC1 | SAS | RNA-Seq |  | 5 µM, 6 h |  | downregulated Wnt/β-catenin pathway genes | 9 genes |
| COc1cc(CNC(=O)C[C@H](C)CCC=C(C)C)ccc1OCc1cn(-c2ccc(Br)cc2)nn1 | RPMI-8226 leukaemia cells | SRB |  | 10 µM, 48 h |  | growth percent | 69.3% |
| CC(=O)N[C@H](C(=O)N[C@H](C(=O)N[C@@H](CCCNC(=N)N)C(=O)N1Cc2ccccc2C[C@H]1C(=O)N[C@@H](Cc1ccccc1)C(N)=O)C1CCCCC1)C(C)C | MBP-specific BC-3 T cells | Bio-Plex multiplex, item: IL-2 |  | 200 µg/mL, 24 h, together with: MBP87-99 antigen |  | cytokine level | < 2.7 pg/mL |
| CC(C)CC(CC(C)C)NC(=O)[C@H](Cc1c[nH]cn1)NC(=O)CNC(=O)[C@@H](NC(=O)[C@H](C)NC(=O)[C@H](Cc1c[nH]c2ccccc12)NC(=O)[C@H](CCC(N)=O)NC(=O)[C@@H](Cc1ccccc1)NC(=O)COCC(=O)Nc1ccc(CNC(=O)CN2CCN(CC(=O)O)CCN(CC(=O)O)CCN(CC(=O)O)CC2)cc1)C(C)C [lutetium-177 labelled] | PC-3, DMSO vehicle pretreated | SRB assay after 6 days |  | 50 MBq, 1 h, 37 °C | relative to: medium-treated | cell density | 98.9 ± 9.01% |
| CCN(CC)CC(=O)Nc1cccc(-n2cc(-c3ccc4ccc(-c5cn(-c6cccc(NC(=O)CN(CC)CC)c6)nn5)cc4c3)nn2)c1 | RCC4 | luciferase reporter |  | 5 x IC50, normoxia |  | HRE reporter activity decrease | 59% |
